Results pooled from the literature.
A part holds a random share of what one study measured.

Block 1 — method: protein-binding microarray; molecule type: double-stranded DNA, one strand shown; medium: in vitro; tested at: 0.8 µM; notes: whole 60-bp probe, no competitor; reading: higher = stronger binding
Target: Centromere-binding protein 1, full length, N-terminal tag (CBF1, Saccharomyces cerevisiae, UniProt P17106, residues 1-351)
Chain of UniProt P17106 (whole entry, looked up): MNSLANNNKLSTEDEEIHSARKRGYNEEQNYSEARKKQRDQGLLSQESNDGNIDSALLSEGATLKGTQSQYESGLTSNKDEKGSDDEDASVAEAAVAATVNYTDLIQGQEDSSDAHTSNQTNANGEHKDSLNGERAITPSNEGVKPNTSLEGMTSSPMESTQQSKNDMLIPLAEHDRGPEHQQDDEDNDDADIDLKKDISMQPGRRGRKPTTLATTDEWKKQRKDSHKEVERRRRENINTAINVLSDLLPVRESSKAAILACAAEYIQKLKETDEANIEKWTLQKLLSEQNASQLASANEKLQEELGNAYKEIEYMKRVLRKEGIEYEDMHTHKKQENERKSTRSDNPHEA
| Strand | fluorescence intensity |
| --- | --- |
| CTAGTTGGGTGTGTGCGTGTGTGTATGTTTCCATTCGTCTTGATTCGCTTGACGCTGCTG | 561 a.u. |
| CTATACTAGCGCCATCACGGCTCAGTCGTTATTTTCGTCTTGATTCGCTTGACGCTGCTG | 513 a.u. |
| CTATTAAAATGACATCAGGTATCAATGCTAATCTTCGTCTTGATTCGCTTGACGCTGCTG | 561 a.u. |
| GAAAGAACTTGCGATGGTGATGGCAAAAAGCGCTAGGTCTTGATTCGCTTGACGCTGCTG | 496 a.u. |

Block 2 — method: protein binding microarray; molecule type: double-stranded DNA, one strand shown; medium: in vitro; tested at: not given; relative to: not given; reading: higher = stronger binding
Target: Histone acetyltransferase KAT6A, both winged helices, GST fusion (KAT6A, Homo sapiens, UniProt Q92794, residues 1-181)
Notes: 8-mer, flanks averaged, mean of 2 arrays, mostly near background
Target sequence (chain): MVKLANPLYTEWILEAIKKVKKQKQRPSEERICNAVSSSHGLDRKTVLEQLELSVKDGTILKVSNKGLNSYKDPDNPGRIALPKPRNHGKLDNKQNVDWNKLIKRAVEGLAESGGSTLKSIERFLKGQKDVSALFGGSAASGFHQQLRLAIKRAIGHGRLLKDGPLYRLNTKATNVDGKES
| Strand | E-score |
| --- | --- |
| ACATGGAG | -0.0983 |
| GTAGGTTA | -0.00483 |
| CCGCTCAA | 0.146 |
| ACAGTAGT | -0.0677 |

Block 3 — method: RNA Bind-n-Seq; molecule type: RNA; medium: in vitro; tested at: 200 nM; notes: whole 134-nt RNA, ends assumed; together with: 150 mM LiCl; relative to: input library; reading: higher = stronger binding; each molecule: 7-deaza-guanosine replaces G
Target: Ras GTPase-activating protein-binding protein 1, full length (G3BP1, Homo sapiens, UniProt Q13283)
Chain of UniProt Q13283 (whole entry, looked up): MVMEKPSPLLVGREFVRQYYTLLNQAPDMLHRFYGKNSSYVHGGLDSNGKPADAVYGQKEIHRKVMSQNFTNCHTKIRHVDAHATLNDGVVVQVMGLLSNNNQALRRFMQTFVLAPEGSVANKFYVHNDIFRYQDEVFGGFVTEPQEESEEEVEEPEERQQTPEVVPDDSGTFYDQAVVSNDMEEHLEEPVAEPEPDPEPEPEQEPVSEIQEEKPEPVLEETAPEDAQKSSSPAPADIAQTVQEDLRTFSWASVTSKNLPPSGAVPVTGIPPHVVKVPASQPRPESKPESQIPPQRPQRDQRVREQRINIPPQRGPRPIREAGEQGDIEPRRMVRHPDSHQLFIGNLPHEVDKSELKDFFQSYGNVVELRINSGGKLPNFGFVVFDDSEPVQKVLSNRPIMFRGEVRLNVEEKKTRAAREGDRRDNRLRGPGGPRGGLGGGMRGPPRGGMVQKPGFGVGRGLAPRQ
| Strand | log2 enrichment |
| --- | --- |
| GGGAGUUCUACAGUCCGACGAUCACCAUGCAGGUGGGCAUCUUUGGGAAGUGGGGCAAGGGGGGGAUAGGGAGGGGGGUAACACUUUGGGAACAGGUGGUCCCAGGUAAAUUCUGGAAUUCUCGGGUGUCAAGG | 0.255 |
| GGGAGUUCUACAGUCCGACGAUCCACAGACAACACGCACCCACACAGACACAGAGGGAAGGGGUAGGGAUGGGGACAGGGUGCACAGCAGGGCGGGGUAGGACCCCAGCCCCUUGGAAUUCUCGGGUGUCAAGG | -0.918 |
| GGGAGUUCUACAGUCCGACGAUCGCAGGAAGUAAAAACAAAUGGAAAUGCUUCGGAUAGUGGCAGGGGUGGGGGUUGCUAAGGAAAGGGUGGGAUGUGAGUGGGUAAAGAGUUUGGAAUUCUCGGGUGUCAAGG | -0.119 |

Further values, each from its own experiment
| Molecule | target | assay | test system | setting | how to read | measurement | result |
| --- | --- | --- | --- | --- | --- | --- | --- |
| PhoQ, residues 284 288 289 292 302 303 SLKLQV | PhoP, residues 12 14 15 18 19 NIMAP (Escherichia coli, UniProt P23836) | Sort-seq, measured: YFP reporter | E. coli | PhoQ-PhoP variant library, together with: 10 µM Mg2+ | relative to: high Mg2+ state, higher = stronger signaling | fold induction | 0.726 |

A few entries again (block 3):
| Strand | log2 enrichment |
| --- | --- |
| GGGAGUUCUACAGUCCGACGAUCCACAGACAACACGCACCCACACAGACACAGAGGGAAGGGGUAGGGAUGGGGACAGGGUGCACAGCAGGGCGGGGUAGGACCCCAGCCCCUUGGAAUUCUCGGGUGUCAAGG | -0.918 |
